Published values pooled from the literature.
Protocols differ between the studies behind these lines. Numbers after ± are the reported error.
GABA A receptor alpha-2/beta-2/gamma-2: GABA A receptor alpha-2/beta-2/gamma-2 (Homo sapiens, UniProt P18507+P47869+P47870)
Sequence of UniProt P47869 (whole entry, looked up): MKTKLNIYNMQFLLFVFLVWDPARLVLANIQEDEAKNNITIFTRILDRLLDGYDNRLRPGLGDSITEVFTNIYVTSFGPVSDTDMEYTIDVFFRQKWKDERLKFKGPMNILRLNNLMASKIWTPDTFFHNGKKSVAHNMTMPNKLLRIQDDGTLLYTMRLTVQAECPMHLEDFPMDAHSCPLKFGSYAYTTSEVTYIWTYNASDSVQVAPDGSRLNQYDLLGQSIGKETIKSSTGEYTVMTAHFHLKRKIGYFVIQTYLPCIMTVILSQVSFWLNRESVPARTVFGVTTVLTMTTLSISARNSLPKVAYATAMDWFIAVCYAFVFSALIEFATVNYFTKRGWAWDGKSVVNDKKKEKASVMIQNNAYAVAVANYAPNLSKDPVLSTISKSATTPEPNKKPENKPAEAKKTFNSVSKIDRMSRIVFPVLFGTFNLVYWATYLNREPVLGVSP
Sequence of UniProt P47870 (whole entry, looked up): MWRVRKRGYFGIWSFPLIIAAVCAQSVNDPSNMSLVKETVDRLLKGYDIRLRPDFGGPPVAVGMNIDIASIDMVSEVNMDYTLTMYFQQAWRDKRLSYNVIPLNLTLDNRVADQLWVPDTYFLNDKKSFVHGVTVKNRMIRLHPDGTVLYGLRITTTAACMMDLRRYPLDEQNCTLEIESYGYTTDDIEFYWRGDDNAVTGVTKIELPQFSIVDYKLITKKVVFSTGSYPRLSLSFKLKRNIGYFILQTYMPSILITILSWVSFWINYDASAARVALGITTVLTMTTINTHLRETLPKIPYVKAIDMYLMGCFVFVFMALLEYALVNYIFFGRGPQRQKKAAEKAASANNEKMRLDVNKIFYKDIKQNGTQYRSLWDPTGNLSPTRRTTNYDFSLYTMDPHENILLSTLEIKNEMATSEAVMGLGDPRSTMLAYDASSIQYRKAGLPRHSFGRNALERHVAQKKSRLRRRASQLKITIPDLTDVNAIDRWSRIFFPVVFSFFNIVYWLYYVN
Sequence of UniProt P18507 (whole entry, looked up): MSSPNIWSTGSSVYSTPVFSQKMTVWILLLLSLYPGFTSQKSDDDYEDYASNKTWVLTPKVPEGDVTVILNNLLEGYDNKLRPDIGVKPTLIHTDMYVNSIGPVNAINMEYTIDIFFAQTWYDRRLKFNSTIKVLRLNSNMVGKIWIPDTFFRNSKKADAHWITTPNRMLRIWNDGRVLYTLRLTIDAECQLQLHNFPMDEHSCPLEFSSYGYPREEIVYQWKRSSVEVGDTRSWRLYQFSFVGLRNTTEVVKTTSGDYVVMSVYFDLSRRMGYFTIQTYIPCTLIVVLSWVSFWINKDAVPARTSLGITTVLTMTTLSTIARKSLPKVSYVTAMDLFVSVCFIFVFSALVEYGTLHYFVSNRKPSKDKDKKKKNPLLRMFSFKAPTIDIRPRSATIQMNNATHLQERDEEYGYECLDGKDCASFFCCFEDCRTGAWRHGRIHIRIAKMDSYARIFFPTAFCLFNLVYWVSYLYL
Cnr1: Cannabinoid receptor 1 (Cnr1, Mus musculus, UniProt P47746)
Sequence of UniProt P47746 (whole entry, looked up): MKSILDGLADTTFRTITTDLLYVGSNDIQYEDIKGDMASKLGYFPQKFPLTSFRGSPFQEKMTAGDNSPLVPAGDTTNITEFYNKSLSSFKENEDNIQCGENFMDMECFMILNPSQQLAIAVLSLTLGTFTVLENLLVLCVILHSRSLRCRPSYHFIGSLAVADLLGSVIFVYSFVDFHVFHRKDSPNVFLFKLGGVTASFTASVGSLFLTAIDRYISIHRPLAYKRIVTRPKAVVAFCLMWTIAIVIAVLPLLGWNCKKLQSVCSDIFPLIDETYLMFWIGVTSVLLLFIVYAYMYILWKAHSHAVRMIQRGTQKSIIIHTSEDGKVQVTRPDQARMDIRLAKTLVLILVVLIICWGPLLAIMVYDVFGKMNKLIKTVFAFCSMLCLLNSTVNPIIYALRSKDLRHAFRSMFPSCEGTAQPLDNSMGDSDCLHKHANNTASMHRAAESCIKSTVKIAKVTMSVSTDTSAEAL
Sequence of UniProt P18508 (whole entry, unmodified, looked up): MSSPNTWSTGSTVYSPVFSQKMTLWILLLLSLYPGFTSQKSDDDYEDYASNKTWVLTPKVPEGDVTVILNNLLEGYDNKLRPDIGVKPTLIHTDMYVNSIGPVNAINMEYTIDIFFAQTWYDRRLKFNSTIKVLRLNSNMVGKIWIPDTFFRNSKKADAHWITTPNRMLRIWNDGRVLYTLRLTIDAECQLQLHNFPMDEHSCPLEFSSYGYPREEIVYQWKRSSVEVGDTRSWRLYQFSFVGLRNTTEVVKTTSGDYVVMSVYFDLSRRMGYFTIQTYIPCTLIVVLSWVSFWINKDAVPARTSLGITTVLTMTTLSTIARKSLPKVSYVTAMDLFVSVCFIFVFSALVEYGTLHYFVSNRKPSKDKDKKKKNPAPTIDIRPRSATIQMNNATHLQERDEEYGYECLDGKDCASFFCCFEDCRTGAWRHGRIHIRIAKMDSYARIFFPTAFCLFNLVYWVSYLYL
Sequence of UniProt P33535 (whole entry, looked up): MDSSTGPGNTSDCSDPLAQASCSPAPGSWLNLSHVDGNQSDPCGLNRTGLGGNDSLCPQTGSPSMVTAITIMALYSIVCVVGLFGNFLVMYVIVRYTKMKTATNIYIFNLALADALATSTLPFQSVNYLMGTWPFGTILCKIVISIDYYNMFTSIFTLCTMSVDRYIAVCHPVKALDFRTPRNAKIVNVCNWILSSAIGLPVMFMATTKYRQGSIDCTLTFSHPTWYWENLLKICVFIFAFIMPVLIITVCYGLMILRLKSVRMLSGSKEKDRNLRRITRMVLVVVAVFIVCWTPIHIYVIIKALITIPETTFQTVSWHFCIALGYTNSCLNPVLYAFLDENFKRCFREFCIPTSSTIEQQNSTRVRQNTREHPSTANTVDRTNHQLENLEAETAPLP
Sequence of UniProt Q01959 (whole entry, looked up): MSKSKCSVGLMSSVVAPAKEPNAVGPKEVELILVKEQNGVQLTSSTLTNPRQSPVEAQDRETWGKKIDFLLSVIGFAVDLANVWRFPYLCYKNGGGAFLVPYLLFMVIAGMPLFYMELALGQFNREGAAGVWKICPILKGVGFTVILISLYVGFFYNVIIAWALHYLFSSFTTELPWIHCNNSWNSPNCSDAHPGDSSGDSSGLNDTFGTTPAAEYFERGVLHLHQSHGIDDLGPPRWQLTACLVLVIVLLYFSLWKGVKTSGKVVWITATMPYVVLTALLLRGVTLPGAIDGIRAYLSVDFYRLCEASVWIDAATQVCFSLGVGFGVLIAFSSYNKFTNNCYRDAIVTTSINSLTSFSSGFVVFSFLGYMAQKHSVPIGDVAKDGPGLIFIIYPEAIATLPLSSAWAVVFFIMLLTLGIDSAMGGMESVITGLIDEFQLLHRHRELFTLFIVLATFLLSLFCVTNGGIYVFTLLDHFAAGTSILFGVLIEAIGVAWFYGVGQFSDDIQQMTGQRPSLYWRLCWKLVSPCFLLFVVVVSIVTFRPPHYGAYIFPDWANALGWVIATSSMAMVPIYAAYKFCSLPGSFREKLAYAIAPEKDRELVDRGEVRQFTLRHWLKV
Sequence of UniProt P15431 (whole entry, unmodified, looked up): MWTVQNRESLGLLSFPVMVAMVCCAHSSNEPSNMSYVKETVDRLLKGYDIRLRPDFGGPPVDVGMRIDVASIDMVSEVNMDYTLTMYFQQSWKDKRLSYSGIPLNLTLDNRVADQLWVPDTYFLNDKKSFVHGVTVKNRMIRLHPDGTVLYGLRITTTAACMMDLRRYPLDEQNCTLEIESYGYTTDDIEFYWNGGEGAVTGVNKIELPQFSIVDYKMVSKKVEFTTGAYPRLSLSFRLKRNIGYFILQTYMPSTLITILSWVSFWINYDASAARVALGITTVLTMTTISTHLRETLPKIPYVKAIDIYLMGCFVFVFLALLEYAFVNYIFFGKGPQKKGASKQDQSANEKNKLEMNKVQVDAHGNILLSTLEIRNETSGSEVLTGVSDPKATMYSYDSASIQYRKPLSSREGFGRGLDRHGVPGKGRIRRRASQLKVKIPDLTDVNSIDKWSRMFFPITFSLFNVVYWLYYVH
Sequence of UniProt P28472 (whole entry, looked up): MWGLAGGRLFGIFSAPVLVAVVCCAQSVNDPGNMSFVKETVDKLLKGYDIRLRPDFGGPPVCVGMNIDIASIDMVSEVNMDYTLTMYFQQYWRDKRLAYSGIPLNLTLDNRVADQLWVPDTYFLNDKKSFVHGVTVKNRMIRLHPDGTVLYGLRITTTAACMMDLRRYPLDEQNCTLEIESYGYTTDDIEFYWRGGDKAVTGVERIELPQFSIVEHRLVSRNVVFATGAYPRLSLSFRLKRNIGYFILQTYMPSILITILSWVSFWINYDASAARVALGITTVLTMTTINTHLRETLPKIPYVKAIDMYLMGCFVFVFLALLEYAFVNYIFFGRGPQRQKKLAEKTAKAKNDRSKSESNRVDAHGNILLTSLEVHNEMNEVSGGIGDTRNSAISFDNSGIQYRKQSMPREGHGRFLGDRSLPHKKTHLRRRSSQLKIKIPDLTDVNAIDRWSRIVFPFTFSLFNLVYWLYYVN
Sequence of UniProt O14764 (whole entry, looked up): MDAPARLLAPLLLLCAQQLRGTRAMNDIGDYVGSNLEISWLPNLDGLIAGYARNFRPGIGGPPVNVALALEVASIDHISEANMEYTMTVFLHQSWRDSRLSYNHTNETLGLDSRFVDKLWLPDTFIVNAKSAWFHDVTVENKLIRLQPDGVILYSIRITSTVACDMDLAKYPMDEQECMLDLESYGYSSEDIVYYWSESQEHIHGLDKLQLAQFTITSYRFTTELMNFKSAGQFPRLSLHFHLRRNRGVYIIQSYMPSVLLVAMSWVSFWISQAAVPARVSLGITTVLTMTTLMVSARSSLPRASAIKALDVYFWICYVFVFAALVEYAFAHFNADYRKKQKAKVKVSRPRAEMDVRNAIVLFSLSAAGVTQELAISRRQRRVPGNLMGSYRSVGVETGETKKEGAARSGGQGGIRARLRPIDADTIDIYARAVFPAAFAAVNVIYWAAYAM

The EC50 of `CN1CCCCC1Cn1cc(C(=O)c2cccc3ccccc23)c2ccccc21` (centres unmarked) is reported as 6800 nM (TRPV1 (Homo sapiens, UniProt Q8NER1); calcium signal, agonist, fluorescence).
`C[C@]12CC[C@@H](O)C[C@@H]1CC[C@@H]1[C@@H]2CC[C@]2(C)[C@@H](C(=O)CO)CC[C@@H]12` gave an EC50 of 41 nM (Gabrb1/Gabrg2/Gabra1 (Rattus norvegicus, UniProt P15431+P18508+P62813, S325C); ion current, agonist, two-electrode voltage clamp; Xenopus oocytes; second activation phase).
`C[C@H](N)Cc1cccc(C(F)(F)F)c1` has an EC50 of 6.78 nM (HTR2B (Homo sapiens, UniProt P41595); Gq dissociation, agonist, BRET; 60 min, 37 °C).
`NCCc1ccccc1` gave an EC50 of 193 nM (TAAR1 (Homo sapiens, UniProt Q96RJ0); cAMP, agonist).
With `C[C@@]1(O)CC[C@H]2[C@H](CC[C@@H]3[C@@H]2CC[C@]2(C)[C@@H](C(=O)Cn4cc(C#N)cn4)CC[C@@H]32)C1` the EC50 was 380 ± 60 nM (GABA A receptor alpha-2/beta-2/gamma-2; GABA current potentiation, positive modulator, two-electrode voltage clamp; Xenopus laevis oocytes; 30 s preincubation, added: GABA EC10).
For `CNC(C)C(=O)c1ccccc1` (centres unmarked), the EC50 was 1570 ± 480 nM (SLC6A3 (Homo sapiens, UniProt Q01959); [3H]dopamine release, releaser; HEK293 expressing target).
`CCCCn1cc(C(=O)c2cccc3ccccc23)c2c(O)cccc21` gave an EC50 of 113 nM (Cnr1; GTPγS binding, agonist; cell membranes).
For `CC(=O)[C@H]1CC[C@H]2[C@@H]3CC[C@H]4C[C@H](O)CC[C@]4(C)[C@H]3CC[C@]12C`, the EC50 was 110 ± 40 nM (GABA A receptor alpha-2/beta-2/gamma-2; GABA current potentiation, positive modulator, two-electrode voltage clamp; Xenopus laevis oocytes; 30 s preincubation, added: GABA EC10).
`CN(C(=O)/C=C/c1ccoc1)[C@@H]1CC[C@@]2(O)[C@H]3Cc4cccc5c4[C@@]2(CCN3CC2CC2)[C@H]1O5` has an EC50 of 215 nM (Oprm1 (Rattus norvegicus, UniProt P33535); GTPγS binding, agonist; cell membranes).
The EC50 of `CCCCCCC(C)(C)c1ccc([C@@H]2C[C@H](O)CC[C@H]2CCCO)c(O)c1` is reported as 7.5 nM (Cnr1; GTPγS binding, agonist; cell membranes).
For `CC(=O)[C@H]1CC[C@H]2[C@@H]3CC[C@H]4C[C@](C)(O)CC[C@]4(C)[C@H]3CC[C@]12C`, the EC50 was 250 ± 60 nM (Gamma-aminobutyric acid receptor subunit alpha-4/beta3/delta (Homo sapiens, UniProt O14764+P28472+P48169); GABA current potentiation, positive modulator, two-electrode voltage clamp; Xenopus laevis oocytes; 30 s preincubation, added: GABA EC10).

A few entries again:
With `C[C@@]1(O)CC[C@H]2[C@H](CC[C@@H]3[C@@H]2CC[C@]2(C)[C@@H](C(=O)Cn4cc(C#N)cn4)CC[C@@H]32)C1` the EC50 was 380 ± 60 nM (GABA A receptor alpha-2/beta-2/gamma-2; GABA current potentiation, positive modulator, two-electrode voltage clamp; Xenopus laevis oocytes; 30 s preincubation, added: GABA EC10).
